Results of several laboratories.
Lines come from different studies, so protocols differ. “And” joins repeats or separate records; there may be more than shown.
SRC: Proto-oncogene tyrosine-protein kinase Src (SRC, Homo sapiens, UniProt P12931)

SMILES | target | assay | system | conditions | scale | measurement | value
C=CC(=O)Nc1cccc(-c2cnc3[nH]cc(C(=O)NC(C)(C)C)c3n2)c1 | SRC | kinase activity |  | 0.1 µM |  | inhibition | 12%
CNC1C[S+]2CC[S+]3CC[S+](C1)[Ru-4]321([N]=C=S)[n]2c3ccc(OC)cc3c3c4c(c5cc(F)c[n+]1c5c32)C(=O)NC4=O (centres unmarked) | SRC | KinomeScan |  | 0.1 µM | baseline: untreated | remaining binding | 98%
O=C(Cc1ccc(OCc2ccccc2)cc1)NC1(C(=O)O)CCN(C(=O)c2ccc(-c3cccc(Cl)c3)cc2)CC1 | SRC | enzyme activity, inhibitor |  | 10 µM |  | activity vs control | 132%
CC(C)=CC1OC(C)(C)C2C=C3C(=O)C(Cl)=CC(O)C3C3C(O)C4OC4C(=O)C132 (centres unmarked) | SRC | cell-free assay, competition with immobilised ligand |  | 10 µM |  | remaining binding | 91%
COc1ccc(NC(=O)Nc2ccc3c(c2)C(=O)N(C(C)CO)CC(C)C(CN(C)Cc2ccc4c(c2)OCO4)O3)cc1 (centres unmarked) | SRC | kinase activity, KinaseProfiler |  | 0.03 µM, species human | baseline: control | remaining activity | 98%
NC(=O)[C@@H](O)C[C@H]1CCc2sc3ncnc(O[C@H]4CC[C@H](N5CCOCC5)CC4)c3c21 | SRC | enzyme activity, inhibitor |  | 10 µM |  | inhibition | 64%
O=C(Nc1ccc(Oc2ncnc3[nH]cc(-c4ccccc4)c23)c(F)c1)c1c2n(n(-c3cc(F)ccc3F)c1=O)CCCC2 | SRC | enzyme activity, inhibitor |  | 0.5 µM |  | inhibition | 47%
COc1c(OCCCN2CCOCC2)ccc2c1N=C(NC(=O)c1cnc(N)nc1)N1CCN=C21 | SRC | kinase activity, inhibitor |  | 1 µM | baseline: untreated control | remaining activity | 125%
COCC12C(=O)NC3C4(C(OC)CC1O)C1CC5(O)C(OC)C(O)C(OC(C)=O)(C1C5OC(=O)c1ccccc1)C3(O)C(OC)C24 (centres unmarked) | SRC | kinase activity, inhibitor, ProQinase kinase profiling |  | 25 µM | baseline: control | remaining activity | 111% and 105%
c1ccc2c(Nc3cc(C4CCC4)[nH]n3)nc(Nc3ccc4nc[nH]c4c3)nc2c1 | SRC | enzyme activity, inhibitor |  | 0.25 µM |  | remaining activity | 4%
CN1CCN(Cc2ccc(NC(=O)c3cccc(C#Cc4cnc(N)c5ncccc45)c3)cc2C(F)(F)F)CC1 | SRC | cell-free assay, competition with immobilised ligand |  | 50 nM |  | remaining binding | 5.8%
C=CC(=O)Nc1cc(-c2nn(C3CCN(CCNC(=O)[C@H](C)CCC45CC6CC(CC(C6)C4)C5)CC3)c3ncnc(N)c23)ccc1Oc1ccccc1 | SRC | inhibitor, KiNativ profiling | biochemical | 2 µM |  | inhibition | 70.8%
COc1ccc(O)cc1-c1c[nH]c2ncc(-c3cncc(C(=O)N(C)C)c3)cc12 | SRC | binding, competition with immobilised ligand |  | 0.2 µM |  | inhibition | -6.9%
Cc1cccc(O[C@H]2CCC[C@@H](C(C)CNCc3ccncc3)C2)c1 (relative stereo) | SRC | enzyme activity, inhibitor |  | 1 µM |  | inhibition | 4%
C=CC(=O)N1CCCC(n2c(=O)c3ncccc3n(Cc3ccc(Oc4ccccc4)cc3)c2=O)C1 (centres unmarked) | SRC | cell-free assay, competition with immobilised ligand |  | 1 µM |  | remaining binding | 94%
Cc1ccc(C)c(-c2ccc3nc(NC(=O)C4CCCCC4)nn3c2)c1 | SRC | enzyme activity, Dundee kinase panel |  | 10 µM |  | remaining activity | 89%
C=C1CCCCCCCCCC(CO)C1=O (centres unmarked) | SRC | cell-free assay, competition with immobilised ligand |  | 10 µM |  | remaining binding | 100%
COc1cc(Nc2nccc(-c3cnn4nc(OC)ccc34)n2)cc(C(F)(F)F)c1 | SRC | binding, competition with immobilised ligand |  | 1 µM |  | remaining binding | 100%
COc1cc(-n2cc3cc(F)cc(C(N)=O)c3n2)cc(Cl)c1C1CC(O)(CCO)Cc2ccccc21 (centres unmarked) | SRC | enzyme activity, inhibitor |  | 10 µM |  | inhibition | 0.25%
C=CC(=O)N1CCc2ccc(-n3c(=O)ccc4cnc5ccc(-c6cnn(C)c6)cc5c43)cc21 | SRC | KINOMEscan |  | 1 µM | baseline: DMSO control | remaining binding | 94%
Cc1ccc(C(=O)Nc2ccc(CN3CCN(C)CC3)c(C(F)(F)F)c2)cc1C#Cc1cnc2cccnn12 | SRC | target engagement, NanoBRET | human cells |  |  | upper asymptote | 12.5
Cc1cccc(-c2ccc3nc(NC(=O)C4CCCO4)nn3c2)c1 (centres unmarked) | SRC | enzyme activity, Dundee kinase panel |  | 10 µM |  | remaining activity | 98%
COc1cc(OC)c(F)c(/C=C/c2cnc3ccn(S(=O)(=O)c4cn(CCF)cn4)c3n2)c1F | SRC |  |  | 100 nM |  | inhibition | 1.6%
CNS(=O)(=O)Nc1nccc(Cc2c(C)c3ccc(Oc4ncccc4F)cc3oc2=O)c1F | SRC | binding, competition with immobilised ligand |  | 10 µM |  | remaining binding | 93%
CCn1cc(C(=O)O)c(=O)c2c(N)c(F)c(NC3CCCCC3)cc21 | Proto-oncogene tyrosine-protein kinase Src, N1 isoform (SRC, Homo sapiens, UniProt P12931) | kinase activity |  | 0.1 µM, with: ATP at Km |  | inhibition | -2.7%
CN1CCN(Cc2ccc(-c3ccc(CO[C@H]4CCC[C@@H]4NC(=O)c4cc(-c5cnn(C)c5)cnc4N)cc3)cc2)CC1 | SRC | enzyme activity, inhibitor |  | 0.1 µM |  | inhibition | 13%

A few entries again:
SMILES | target | assay | system | conditions | scale | measurement | value
NC(=O)[C@@H](O)C[C@H]1CCc2sc3ncnc(O[C@H]4CC[C@H](N5CCOCC5)CC4)c3c21 | SRC | enzyme activity, inhibitor |  | 10 µM |  | inhibition | 64%
O=C(Nc1ccc(Oc2ncnc3[nH]cc(-c4ccccc4)c23)c(F)c1)c1c2n(n(-c3cc(F)ccc3F)c1=O)CCCC2 | SRC | enzyme activity, inhibitor |  | 0.5 µM |  | inhibition | 47%
